Published values pooled from the literature.
Numbered parts are unrelated; each lists some results of a single study. Positions count from the first letter of the parent shown.

Set 1
Target: CEP164, C-terminal peptide (human)
Technique: DHFR complementation, deep sequencing
Medium: yeast
Notes: single substitutions, model-inferred values
Baseline: wild type
Direction: higher = weaker binding
Quantity: binding free energy change
Starting sequence: PDZK1, PDZ domain 2 (human); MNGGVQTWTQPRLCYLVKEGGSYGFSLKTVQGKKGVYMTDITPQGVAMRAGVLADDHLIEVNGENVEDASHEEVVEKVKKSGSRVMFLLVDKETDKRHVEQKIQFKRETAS; partner HNRVKVYRF
M86T: -0.258 kcal/mol
H98Y: -0.0675 kcal/mol
L88V: 0.163 kcal/mol
G82K: 0.68 kcal/mol
A47V: 0.527 kcal/mol
T42D: 0.24 kcal/mol
K96L: 0.0461 kcal/mol
Q6D: -0.0456 kcal/mol

Set 2
Target: CCNE2, cyclin fold, Cln2 fusion (human)
Technique: yeast growth competition, sequencing
Medium: yeast
Notes: strong parent motif
Baseline: not given
Direction: higher = stronger binding
Quantity: normalised enrichment score
Starting sequence: PKN2 docking peptide (human); VSAVRKLDFSDTM
VSAYRKLDFSDTM [V4Y]: 0.982
VSAVLKLDFSDTM [R5L]: 0.13
VSAVEKLDFSDTM [R5E]: -0.171
VSAVRKLWFSDTM [D8W]: 2.51
VSQVRKLDFSDTM [A3Q]: 0.37
VSAVRKLDFLDTM [S10L]: 3.13
VSAVRKLDFRDTM [S10R]: 3.59
VSAVRKLDFSDRM [T12R]: 4.85

Other studies, line by line
P1: PafA, mature enzyme, eGFP fusion (Elizabethkingia meningoseptica, UniProt Q9KJX5); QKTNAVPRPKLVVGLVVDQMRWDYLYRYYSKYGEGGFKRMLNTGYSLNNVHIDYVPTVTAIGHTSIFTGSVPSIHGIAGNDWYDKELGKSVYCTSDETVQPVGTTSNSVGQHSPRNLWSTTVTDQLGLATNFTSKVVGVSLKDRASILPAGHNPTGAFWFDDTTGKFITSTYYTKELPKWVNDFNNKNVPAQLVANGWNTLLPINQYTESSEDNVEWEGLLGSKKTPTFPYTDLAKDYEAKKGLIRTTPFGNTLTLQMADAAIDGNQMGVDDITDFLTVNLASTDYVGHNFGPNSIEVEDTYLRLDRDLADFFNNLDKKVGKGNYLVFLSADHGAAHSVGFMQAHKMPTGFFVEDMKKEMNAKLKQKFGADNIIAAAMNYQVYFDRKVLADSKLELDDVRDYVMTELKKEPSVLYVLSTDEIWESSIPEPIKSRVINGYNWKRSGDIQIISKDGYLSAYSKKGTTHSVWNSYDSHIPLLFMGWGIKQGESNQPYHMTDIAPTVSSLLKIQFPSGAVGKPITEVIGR
PhoQ, residues 284 288 289 292 302 303 ALASRC
fold induction (PhoP, residues 12 14 15 18 19 NFCKL (Escherichia coli, UniProt P23836); Sort-seq, measured: YFP reporter; E. coli; PhoQ-PhoP variant library, added: 10 µM Mg2+; baseline: high Mg2+ state, higher = stronger signaling): 1.07

P1 V109A
oxyanion analog dissociation constant (tungstate, free oxyanion; microfluidic competitive inhibition; in vitro, cell-free expressed; not given, derived from inhibition constants, unchanged parent 2230 nM; lower = stronger binding): 2.53 µM
